{"data": "Experimental data from different studies", "note": "A part holds a random share of what one study measured."}
{"data": "Series 1", "target": "Sal-like protein 4, full length isoform B (SALL4, Homo sapiens, UniProt Q9UJQ4-2, residues 1-616)", "technique": "universal PBM", "form": "double-stranded DNA, one strand shown", "matrix": "in vitro", "tested at": "not given", "setting": "8-mer, flanks averaged, mean of replicates", "direction": "higher = stronger binding"}
{"Oligonucleotide": "GGACCAAC", "E-score": -0.232}
{"Oligonucleotide": "CACGCGGG", "E-score": -0.214}
{"Oligonucleotide": "ACAAGTTG", "E-score": 0.039}
{"Oligonucleotide": "GCACTCAC", "E-score": -0.159}
{"Oligonucleotide": "GTGAGAAA", "E-score": 0.117}
{"Oligonucleotide": "GTAATGGA", "E-score": 0.161}
{"Oligonucleotide": "ACCAGGAA", "E-score": -0.112}
{"Oligonucleotide": "AACCAGCT", "E-score": -0.0542}
{"Oligonucleotide": "ACCTATGC", "E-score": 0.0562}
{"Oligonucleotide": "GCGCGGGA", "E-score": -0.224}
{"Oligonucleotide": "AGCGAGTG", "E-score": -0.124}
{"Oligonucleotide": "CTTACAGC", "E-score": 0.0911}
{"Oligonucleotide": "TGCATTAA", "E-score": 0.242}
{"Oligonucleotide": "ATCCGGGA", "E-score": -0.235}
{"Oligonucleotide": "AAGATGCC", "E-score": -0.1}
{"Oligonucleotide": "GATTGTGC", "E-score": -0.0869}
{"Oligonucleotide": "CAGCTTCG", "E-score": -0.185}
{"Oligonucleotide": "AGGTACTG", "E-score": 0.0154}
{"Oligonucleotide": "CGAGCGAA", "E-score": -0.197}
{"Oligonucleotide": "AACGCATC", "E-score": -0.0637}
{"Oligonucleotide": "TGAAATCA", "E-score": 0.229}
{"Oligonucleotide": "ATAAATCC", "E-score": 0.287}
{"Oligonucleotide": "AGAGTATG", "E-score": 0.0382}
{"data": "Series 2", "target": "RING finger protein unkempt homolog, zinc fingers 1-6, SBP tag (UNK, Homo sapiens, UniProt Q9C0B0, residues 30-357)", "technique": "RNA Bind-n-Seq", "form": "RNA", "matrix": "in vitro", "tested at": "100 nM", "setting": "RNA with constant flanks, vertebrate orthologous sites, ends assumed", "relative to": "input RNA pool", "direction": "higher = stronger binding", "all sequences stand within": "GGGAGUUCUACAGUCCGACGAUC … CAACAGAGGAUUGAGCAUCA", "UniProt Q9C0B0, sequence (30-357, looked up)": "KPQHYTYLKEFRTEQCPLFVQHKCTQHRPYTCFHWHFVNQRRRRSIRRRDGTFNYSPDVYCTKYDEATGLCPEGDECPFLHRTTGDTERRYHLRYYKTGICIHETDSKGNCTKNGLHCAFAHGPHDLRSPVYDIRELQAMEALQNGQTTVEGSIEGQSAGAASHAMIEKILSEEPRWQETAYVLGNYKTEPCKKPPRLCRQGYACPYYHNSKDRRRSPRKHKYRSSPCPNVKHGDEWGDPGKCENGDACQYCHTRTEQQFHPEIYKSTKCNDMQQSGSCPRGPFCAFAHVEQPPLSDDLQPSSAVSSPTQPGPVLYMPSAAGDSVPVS"}
{"Oligonucleotide": "UUUAUUGAUCAGGUCUGUAAAUGUGUACUAAAAUGAAUCAGAGUUUAUUUAUAAACAGAAUAGUUUAUUUAAAGAGAAGGUCUUUUCCUCACUGAUAUCGUGGUAUGCAUUAAUUCUAUU", "bound/input enrichment [ratio]": 0.119}
{"Oligonucleotide": "GGUUAAUGUGUUAUUUAUUGAGUAUUGUUUGUGCUAAGCAUUGUGUUAGAUUUAAAAAAUUAGUGGAUUGACUCCACUUUGUUGUGUUGUUUUCAUUGUUGAAAAUAAAUAUAACUUUGU", "bound/input enrichment [ratio]": 0.931}
{"Oligonucleotide": "UUUUUUGUUUUGCACAUGACAGUGUUUGUAACGGAAUUUUCUGAGGAAGAAGGGGUGCUGUAGCAGUGGUGCCGGGGUUCCUGGCCUCCAGCACCCUACCACCUCACCACCCCACCUGGC", "bound/input enrichment [ratio]": 0.332}
{"Oligonucleotide": "UUACAGUCAUUGAUGGACUCUAUUUUUUUAUUAUUACUUGGACCUUGGUCGUUUUUAUACUAGCAAAAUGUCUUGUUUUAAUUUGUGUUUUUUUGGGGGGGAGGGAGUGAACUUGCUGAU", "bound/input enrichment [ratio]": 2.23}
{"Oligonucleotide": "CCUUUCUCCCCUGCUGAGAGGGAGUGGGGGAGCCCAGGAAGACCCUCAGCUGUUCCAAUCCAGUAUUUUUUUUCUUUUUUAAAAUUACUGUAUUUAUUAUGACGAUGGUGACUCCCCAGU", "bound/input enrichment [ratio]": 0.46}
{"Oligonucleotide": "CUUAAUUAGAGGGCAAUAUAUGUUUCAUAAAGAAGAGUCUUUAUAAUUUUGUUUGUCAGAUAGUAUUUUGGAAUUUGUAUAAUAAGGAUGUUUAGAAGCCAUAUAAGUGGCUUUUUUUAA", "bound/input enrichment [ratio]": 0.38}
{"Oligonucleotide": "AGUUUGUAUGUACAUUAUUCACAUUCCUCUGUUGUGUUUGGGAAAAAAAAAAAAGACAUUUUAGCCUUUUUUAAGGUUAUUGAUUUAAUUUCAUGUUAUUUGGUUGCAUGAAGUUGCCCU", "bound/input enrichment [ratio]": 0.42}
{"Oligonucleotide": "AGUUUGUAUGUACAUUAUUUACAUUCCUCUGUUGUGUUUGGAAGAAAACAAAAAGACAUUUUAGCCUUUUUUAAGGUUAUUGAUUUAAUUUAAUGUUAUUUGGUUGCAUGAAGUUGCUCU", "bound/input enrichment [ratio]": 0.351}
{"data": "Series 3", "target": "RNA binding protein fox-1 homolog 2, RRM domain, GST-SBP tag (RBFOX2, Homo sapiens, UniProt O43251-10, residues 100-194)", "technique": "RNA Bind-n-Seq", "form": "RNA", "matrix": "in vitro", "tested at": "365 nM", "setting": "natural RNA segment, single round, ends assumed", "relative to": "no-protein control", "direction": "higher = stronger binding", "all sequences stand within": "GGGAGUUCUACAGUCCGACGAUC … UGGAAUUCUCGGGUGCCAA", "Target sequence (chain)": "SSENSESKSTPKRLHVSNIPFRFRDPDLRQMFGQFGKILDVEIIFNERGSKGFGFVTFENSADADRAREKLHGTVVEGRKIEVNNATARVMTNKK"}
{"Oligonucleotide": "UUGUUUUGGAGGAACCCUGGUGGUUUGACAGCCAGGAGAAAGGCCAUAUGUGAAACCAGUCUCUUGUGGAGAUUGGAAAUCCUCCCUGAUAUUUGGGCAGAGCCUAAACG", "RBNS enrichment (R)": 0.428}
{"Oligonucleotide": "CGAGCACACUGCCCCCGGUUGCCUGCCUGGGCCCCAUGUGGAAGGCAGAUGCCUGCUCGCUCUGUCACCUGUGCCUCUCAGAACACCAGCAGUUAACCUUCAAGACAUUC", "RBNS enrichment (R)": 0.278}
{"Oligonucleotide": "AGAAAUAUUCAGAUACAAGUUUUAUCUCAGGUGAAUAUCCUUGUAUCGUUUUGCUUUGCUGACAUGUUUAUAAAGAAAGACCAUCAUACUUAAUAGUCUUUGGAGGUUUG", "RBNS enrichment (R)": 0.585}
{"Oligonucleotide": "AUAAUAAGCCUUUUUACCUCUGUGUAAAAAAUAUAUAUACAAGUGUAUGAUGUACAUUUUAGUUCUUAACUUUUUUUUAUGGUUUCUAAUAUGUAUGACCAAUGUAGCCA", "RBNS enrichment (R)": 0.636}
{"Oligonucleotide": "AGGUAAACAAAAGAAUUUGUAUUGCUUGAUAAAUAUUAGCUUGUAAAUUUAAAGUUUCUUUACUUCAAUUAACUUAAAGGACCAAUAAACCCAUAAAAGAUGCUUUCUUU", "RBNS enrichment (R)": 0.555}
{"Oligonucleotide": "CCCAAAUAGGAGACCUGGGGCCUGGCCAGGCCAGGGUUUGGGCCUAAUGGCUUUGACUAAAUUACCCCCAUCCUCCUUGCCCGGAAAAGGGAGAGCUAGAGCCACUCACU", "RBNS enrichment (R)": 0.277}
{"Oligonucleotide": "CAAUACUUAAAAGUAUAUAGUUGGUGGUUAAGCUUAUGAGAUGAGUGAAUGGAAAACCUGGGAGAGGAAAGGGUGGACAGAAUUCAAGUCUGCUUCUGUCCCAGCCACAU", "RBNS enrichment (R)": 1.01}
{"Oligonucleotide": "UCUCUUCCUGAUGGUGCAGAACCCAGAAUUAGAAGUUUGUGGUUACAGCAUACUCUGUCCUUCAGAAAGGCGUGAUUCUAGCUGUUGACCCCUUGCAGCUGUUGGAAUCU", "RBNS enrichment (R)": 0.838}
{"data": "Series 4", "target": "Histone acetyltransferase KAT6A, winged helix 2, GST fusion (KAT6A, Homo sapiens, UniProt Q92794, residues 85-181)", "technique": "protein binding microarray", "form": "double-stranded DNA, one strand shown", "matrix": "in vitro", "tested at": "not given", "setting": "8-mer, flanks averaged, mean of 2 arrays, mostly near background", "relative to": "not given", "direction": "higher = stronger binding", "Residues (chain)": "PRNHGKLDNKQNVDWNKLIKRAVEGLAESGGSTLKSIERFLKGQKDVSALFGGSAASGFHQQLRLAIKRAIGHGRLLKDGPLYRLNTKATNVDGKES"}
{"Oligonucleotide": "CGCAGGTC", "E-score": 0.0401}
{"Oligonucleotide": "CACTAAAC", "E-score": 0.0275}
{"Oligonucleotide": "ACGAGCGG", "E-score": -0.0138}
{"Oligonucleotide": "CTCGATAA", "E-score": 0.027}
{"Oligonucleotide": "CCTGTACG", "E-score": -0.0602}
{"Oligonucleotide": "CTCTTGAA", "E-score": 0.0443}
{"Oligonucleotide": "AGGGAGTA", "E-score": -0.164}
{"Oligonucleotide": "CATCGAAA", "E-score": 0.097}
{"Oligonucleotide": "AAGATTCA", "E-score": 0.011}
{"Oligonucleotide": "AACTGCCA", "E-score": -0.0654}
{"Oligonucleotide": "GCCAGCCC", "E-score": 0.0871}
{"Oligonucleotide": "AAAGCTAT", "E-score": -0.0213}
{"Oligonucleotide": "GAAACGAC", "E-score": 0.0222}
{"Oligonucleotide": "CGACCCCG", "E-score": 0.029}
{"Oligonucleotide": "AATCAAAG", "E-score": -0.00543}
{"Oligonucleotide": "CACGCTCG", "E-score": -0.0556}
{"Oligonucleotide": "TAGGGGCA", "E-score": -0.117}
{"Oligonucleotide": "ACCAACCA", "E-score": 0.0199}
{"Oligonucleotide": "GAATACAA", "E-score": 0.135}
{"Oligonucleotide": "TCATAGAA", "E-score": 0.063}
{"Oligonucleotide": "CGTGCACG", "E-score": -0.0801}
{"Oligonucleotide": "GGCCGCAA", "E-score": 0.148}
{"Oligonucleotide": "CTTGCTTC", "E-score": 0.0723}
{"Oligonucleotide": "TTGATCAA", "E-score": -0.0971}
{"Oligonucleotide": "TCGCGAGA", "E-score": 0.0713}
